Literature values that unrelated publications cite.
± gives the spread as reported.
TACR1: Substance-P receptor (TACR1, Homo sapiens, UniProt P25103)
Sequence of UniProt P25103 (whole entry, looked up): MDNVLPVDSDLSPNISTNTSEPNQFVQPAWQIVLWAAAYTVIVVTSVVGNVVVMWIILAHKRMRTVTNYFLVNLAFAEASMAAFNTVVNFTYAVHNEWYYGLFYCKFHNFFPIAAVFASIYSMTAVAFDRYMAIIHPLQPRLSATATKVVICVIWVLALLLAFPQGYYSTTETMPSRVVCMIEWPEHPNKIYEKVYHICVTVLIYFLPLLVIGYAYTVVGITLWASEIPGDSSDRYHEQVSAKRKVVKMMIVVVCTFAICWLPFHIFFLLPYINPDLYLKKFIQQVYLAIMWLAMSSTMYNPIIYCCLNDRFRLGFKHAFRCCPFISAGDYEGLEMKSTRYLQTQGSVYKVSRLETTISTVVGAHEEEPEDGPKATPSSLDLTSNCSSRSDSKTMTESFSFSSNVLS
BCHE: Cholinesterase (BCHE, Equus caballus, UniProt P81908)
Sequence of UniProt P81908 (whole entry, looked up): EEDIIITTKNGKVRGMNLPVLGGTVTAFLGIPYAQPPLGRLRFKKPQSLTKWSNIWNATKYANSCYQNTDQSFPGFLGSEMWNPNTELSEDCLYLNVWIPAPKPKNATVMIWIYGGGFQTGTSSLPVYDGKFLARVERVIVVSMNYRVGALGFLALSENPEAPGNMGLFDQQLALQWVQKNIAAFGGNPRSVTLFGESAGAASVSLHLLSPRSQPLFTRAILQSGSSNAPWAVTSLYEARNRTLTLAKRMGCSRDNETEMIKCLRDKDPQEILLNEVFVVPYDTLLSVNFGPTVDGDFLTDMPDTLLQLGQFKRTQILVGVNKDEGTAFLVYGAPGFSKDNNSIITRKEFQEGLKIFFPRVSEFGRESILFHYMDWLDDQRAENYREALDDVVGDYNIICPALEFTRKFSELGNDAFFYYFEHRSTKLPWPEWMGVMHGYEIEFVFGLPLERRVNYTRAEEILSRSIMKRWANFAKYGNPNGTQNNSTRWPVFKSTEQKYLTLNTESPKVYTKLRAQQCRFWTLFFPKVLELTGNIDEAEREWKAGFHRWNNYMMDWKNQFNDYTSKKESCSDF
ACHE: Acetylcholinesterase (ACHE, Homo sapiens, UniProt P22303)
Sequence of UniProt P22303 (whole entry, looked up): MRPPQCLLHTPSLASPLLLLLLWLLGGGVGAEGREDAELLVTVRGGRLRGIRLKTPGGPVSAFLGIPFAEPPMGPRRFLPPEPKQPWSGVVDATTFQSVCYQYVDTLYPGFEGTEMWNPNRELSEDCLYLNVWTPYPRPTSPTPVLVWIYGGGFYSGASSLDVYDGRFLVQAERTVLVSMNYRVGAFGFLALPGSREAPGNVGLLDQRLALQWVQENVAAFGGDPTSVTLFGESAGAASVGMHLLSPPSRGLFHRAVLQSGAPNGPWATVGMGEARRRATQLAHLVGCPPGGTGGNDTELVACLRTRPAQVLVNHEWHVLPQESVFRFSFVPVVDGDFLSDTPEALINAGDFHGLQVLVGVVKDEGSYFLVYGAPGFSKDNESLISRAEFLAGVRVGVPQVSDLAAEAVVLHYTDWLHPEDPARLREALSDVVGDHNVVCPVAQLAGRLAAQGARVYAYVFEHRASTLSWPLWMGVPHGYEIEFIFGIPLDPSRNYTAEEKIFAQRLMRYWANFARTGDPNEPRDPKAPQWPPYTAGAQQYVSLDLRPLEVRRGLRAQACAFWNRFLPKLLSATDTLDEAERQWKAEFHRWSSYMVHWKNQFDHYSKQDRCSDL
Sequence of UniProt P0AF12 (whole entry, looked up): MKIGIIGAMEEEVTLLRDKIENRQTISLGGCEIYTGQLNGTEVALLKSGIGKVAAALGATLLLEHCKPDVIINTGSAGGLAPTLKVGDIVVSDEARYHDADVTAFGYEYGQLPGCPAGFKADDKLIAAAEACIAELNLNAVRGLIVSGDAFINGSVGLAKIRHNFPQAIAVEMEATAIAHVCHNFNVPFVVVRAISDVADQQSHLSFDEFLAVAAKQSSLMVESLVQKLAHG
Sequence of UniProt P0A6L2 (whole entry, looked up): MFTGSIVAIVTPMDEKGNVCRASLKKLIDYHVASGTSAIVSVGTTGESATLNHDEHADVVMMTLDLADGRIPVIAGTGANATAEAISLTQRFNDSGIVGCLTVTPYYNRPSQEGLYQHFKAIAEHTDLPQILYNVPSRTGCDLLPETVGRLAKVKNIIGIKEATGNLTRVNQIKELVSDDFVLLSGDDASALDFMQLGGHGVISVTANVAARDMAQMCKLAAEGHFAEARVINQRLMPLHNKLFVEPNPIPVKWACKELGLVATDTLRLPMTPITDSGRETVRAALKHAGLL

SMILES | target | assay | system | setting | Ki [µM]
Ic1ccccc1CN[C@@H]1C2CCN(CC2)[C@@H]1C(c1ccccc1)c1ccccc1 (racemic) | TACR1 | binding | – | – | 0.0026
CCN(CC)C(=O)c1ccc([C@H](c2ccccc2)N2C[C@@H](C)N(Cc3cccc(F)c3)C[C@@H]2C)cc1 | mu opioid receptor rat | – | – | – | 1.8
O=c1c2nn(-c3ccccc3Cl)c(-c3ccc(Cl)cc3)c2ncn1C1CCCCC1 | CB1 receptor | binding | – | – | 0.02
Nc1ncnc2c(CN3CC(CSc4ccc(Cl)cc4)[C@H](O)C3)c[nH]c12 (some centres unmarked) | mtnN (Escherichia coli, UniProt P0AF12) | – | – | – | 2.6e-06 ± 1e-07
O=C(/C=C/c1ccc(O)c(O)c1)O[C@H](Cc1ccc(O)c(O)c1)C(=O)O | BCHE | – | – | – | 0.000121
Cc1ccc(C(C)C)cc1O | acetylcholinesterase | inhibitor | – | – | 0.0229
COc1ccc2c(c1O)-c1c(O)c(OC)cc3c1[C@H](C2)[N+](C)(C)CC3 | CA2 (Homo sapiens, UniProt P00918) | – | – | – | 0.0254
COc1ccc2c(c1)CC(NS(=O)(=O)N(C)C)CC2 (centres unmarked) | ACHE | – | – | – | 0.00083
N#CC(=Cc1ccc(O)cc1)C(=O)O | mitochondrial monocarboxylate transporter (rat) | monocarboxylate transport, inhibitor | rat liver mitochondria | – | 6
COc1ccc2c(c1)c(CCN1CCOCC1)c(C)n2C(=O)c1cccc(Cl)c1Cl | cannabinoid receptor 1, human | binding | – | – | 4.77
Cc1c(C(=O)NC2CCCCC2)nn(-c2ccc(Cl)cc2Cl)c1-c1ccc(Cl)cc1 | CB1 receptor | binding | – | – | 0.00246
O=C(O)/C(=C/c1c(C(=O)O)[nH]c2cc(Cl)cc(Cl)c12)c1ccccc1 | Grin1 (Rattus norvegicus, UniProt P35439) | – | – | – | 0.021
Ic1ccccc1CN[C@@H]1C2CCN(CC2)[C@@H]1C(c1ccccc1)c1ccccc1 (racemic) | TACR1 | binding | – | historical reference data | 0.0026
O=S(=O)(O)c1nc2cc(Cl)ccc2[nH]1 | RacE | inhibitor | – | – | 13 ± 2.4
C/N=C(/NS(=O)(=O)c1ccc(C(F)(F)F)cc1)N1CC(c2ccccc2)C(c2ccc(Cl)cc2)=N1 (centres unmarked) | CB1 receptor | binding | – | – | 0.0359
Nc1ccccc1[C@@H](O)C[C@H](N)C(=O)O | kynureninase (Pseudomonas fluorescens) | inhibitor | – | – | 0.3
Cc1c(C(=O)NN2CCCCC2)nc(-c2ccc(Cl)cc2Cl)n1-c1ccc(C(F)(F)F)cc1 | CB1 receptor | binding | – | – | 0.029
CC(=O)c1c(O)c(C)c(O)c2c1OC1=CC(=O)C(C(C)=O)C(=O)C12C (centres unmarked) | BCHE | – | – | – | 0.00198
O=C(O)c1cccc(C(=O)O)n1 | dapA (Escherichia coli K-12, UniProt P0A6L2) | uncompetitive inhibitor | – | together with: (S)-ASA | 18000 ± 2000
C=CCn1c2c(c3cc(C(=O)N4CCC(C)CC4)ccc31)CN(C1CCCC1)C2 | CB2 receptor | binding | – | – | 0.0233
CN(C)c1nc2c(Br)c(Br)c(Br)c(Br)c2n1CC(=O)O | CSNK2A2 | inhibitor | – | – | 0.021
CC(=O)c1c(O)c(C)c(O)c2c1OC1=CC(=O)C(C(C)=O)C(=O)C12C (centres unmarked) | glutathione reductase | inhibitor | – | – | 210 ± 100
CCCNC(=O)c1nn(-c2ccc(Cl)cc2Cl)c(-c2ccc(Cl)cc2)c1C | CB1 receptor | binding | – | – | 0.0299
CC(C)(C)c1cccc(C(=O)C(F)(F)F)c1 | ACHE | – | – | – | 3.7e-06
Cc1c(C(=O)NN2CCCCCC2)nn(-c2ccc(Cl)cc2Cl)c1-c1ccc(Br)cc1 | CB1 receptor | binding | – | – | 0.00785
CCC1=CC2Cc3nc4cc(Cl)ccc4c(N)c3[C@@H](C1)C2 | ACHE | – | – | – | 2.6e-05
Cc1c(C(=O)N2CCCCC2)nn(-c2ccc(Cl)cc2Cl)c1-c1ccc(Br)cc1 | CB1 receptor | binding | – | – | 0.125
CCc1cccc(C(=O)C(F)(F)F)c1 | ACHE | – | – | – | 0.00039
CC(C)CN(C[C@@H](O)[C@H](Cc1ccccc1)NC(=O)O[C@H]1CO[C@H]2OCC[C@H]21)S(=O)(=O)c1ccc(C(=O)O)cc1 | Gag-Pol polyprotein, protease (gag-pol, Human immunodeficiency virus type 1 group M subtype B, UniProt P04585) | inhibitor | – | – | 1.29e-05

Repeated from above:
SMILES | target | assay | system | setting | Ki [µM]
CC(=O)c1c(O)c(C)c(O)c2c1OC1=CC(=O)C(C(C)=O)C(=O)C12C (centres unmarked) | glutathione reductase | inhibitor | – | – | 210 ± 100
CCCNC(=O)c1nn(-c2ccc(Cl)cc2Cl)c(-c2ccc(Cl)cc2)c1C | CB1 receptor | binding | – | – | 0.0299
